Measurements gathered from unrelated publications.
Lines come from different studies, so protocols differ. ± marks the error that the study gave.
Matrix: plasma

SMILES = CC(C)[C@H](NC(=O)CNC(=O)[C@H](CCC(N)=O)NC(=O)[C@H](C)N)C(=O)O; host = human, both sexes; route = intravenous infusion; dose = 90 mg/kg/h; time = 2 h infusion; setting = geometric mean; AUC(0-t) = 7340 ng·h/mL
SMILES = O=C(CCc1ccc(CNC(C(=O)O)C2CCCCC2)cn1)NO (centres unmarked); host = human; route = oral; dose = 40 mg once daily; time = day 1; setting = geometric mean; AUC(0-t) = 221 ng·h/mL
SMILES = CN1CCC[C@]1(C)/C=C/S(=O)(=O)NC(=O)Nc1c2c(cc3c1CCC3)CCC2; host = human; route = oral; dose = 50 mg twice daily; time = day 14; setting = multiple ascending dose; AUC(0-t) = 122000 ng·h/mL
SMILES = [2H]C([2H])([2H])Oc1cc2c(cc1OC([2H])([2H])[2H])[C@H]1CC(=O)[C@H](CC(C)C)CN1CC2; host = human CYP2D6 extensive metabolizers; route = oral; dose = 25 mg; setting = fasted, arithmetic mean; AUC(0-t) = 0.26 ng·h/mL
SMILES = Cn1c(=O)oc2ccc(-c3ccc(CC(C#N)NC(=O)C4CNCCCO4)c(F)c3)cc21 (centres unmarked); host = human; dose = 10 mg once daily; time = day 28; setting = geometric mean; AUC(0-t) = 1450 ng·h/mL
SMILES = [2H]C([2H])(c1ccc(O)c(O)c1)[C@]([2H])(N)C(=O)O; host = human; route = oral; dose = 150 mg single; setting = geometric LS mean; added = 37.5 mg carbidopa; AUC(0-t) = 3450 ng·h/mL
SMILES = O=C(CCc1ccc(CNC(C(=O)OC2CCCC2)C2CCCCC2)cn1)NO (centres unmarked); host = human; route = oral; dose = 20 mg once daily; time = day 1; setting = geometric mean; AUC(0-t) = 76.7 ng·h/mL
SMILES = CCCOc1ccc(S(N)(=O)=O)cc1-c1nc2c(CCC)nn(C)c2c(=O)[nH]1; host = healthy male humans; route = oral; dose = 200 mg of udenafil; added = dapoxetine 60 mg; AUC(0-t) = 4680 ± 2720 ng·h/mL
SMILES = CCc1cc(Nc2nc(-c3ccc(-n4cnc(C)c4)c(F)c3)cs2)c(C)cc1C; host = human; route = oral; dose = 200 mg once daily; time = day 14; setting = geometric mean; AUC(0-t) = 3880 ng·h/mL
SMILES = [2H]C([2H])([2H])NC(=O)c1ccc(N2C(=S)N(c3ccc(C#N)c(C(F)(F)F)c3)C(=O)C2(C)C)cc1F; host = healthy male human; route = oral; dose = 160 mg; setting = fed, single dose; AUC(0-t) = 712000 ± 201000 ng·h/mL
SMILES = CN[C@@H](CCOc1cccc2ccccc12)c1ccccc1; host = healthy male humans, fasted; route = oral; dose = 60 mg of dapoxetine; AUC(0-t) = 193 ± 126 ng·h/mL
